# Measured values pooled from the literature.
# Each numbered part is a random draw from the data of one study; scales do not carry over between parts. Substitutions count along the parent as printed.

# Sample 1
# Target: ABI1, truncated, D143A, DHFR fusion (Arabidopsis thaliana)
# Technique: DHFR PCA, deep sequencing
# Matrix: yeast
# Notes: methotrexate growth selection, single substitutions
# Added: (+)-ABA 17 µM
# Baseline: wild-type fitted maximum
# Direction: higher = stronger binding
# Parent: PYL1, truncated, DHFR fusion (Arabidopsis thaliana); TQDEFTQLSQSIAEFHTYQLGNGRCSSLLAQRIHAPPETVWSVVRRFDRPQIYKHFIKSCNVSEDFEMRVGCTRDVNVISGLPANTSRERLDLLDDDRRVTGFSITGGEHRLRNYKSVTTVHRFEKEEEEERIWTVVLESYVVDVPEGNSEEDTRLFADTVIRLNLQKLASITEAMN; partner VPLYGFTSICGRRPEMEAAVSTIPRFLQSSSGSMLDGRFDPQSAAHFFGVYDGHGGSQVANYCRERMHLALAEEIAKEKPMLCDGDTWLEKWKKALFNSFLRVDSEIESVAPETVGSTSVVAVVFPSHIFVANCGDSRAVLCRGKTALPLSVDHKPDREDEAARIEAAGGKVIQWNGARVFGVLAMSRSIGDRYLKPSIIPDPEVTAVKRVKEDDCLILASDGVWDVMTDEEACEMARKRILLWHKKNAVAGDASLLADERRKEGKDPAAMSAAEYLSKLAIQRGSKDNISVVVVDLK
Substitution,relative binding score [%]
H34S,84.2
R90K,75.1
G21Y,68.3
Q7G,83.4
S59K,67.5
T160P,-19.2

# Sample 2
# Target: RNA binding protein fox-1 homolog 2, RRM domain, GST-SBP tag (RBFOX2, Homo sapiens, UniProt O43251-10, residues 100-194)
# Technique: RNA Bind-n-Seq
# Form: RNA
# Matrix: in vitro
# Concentration: 365 nM
# Notes: natural RNA segment, single round, ends assumed
# Baseline: no-protein control
# Direction: higher = stronger binding
# Shared flanks, not repeated: GGGAGUUCUACAGUCCGACGAUC … UGGAAUUCUCGGGUGCCAA
# Target sequence (chain): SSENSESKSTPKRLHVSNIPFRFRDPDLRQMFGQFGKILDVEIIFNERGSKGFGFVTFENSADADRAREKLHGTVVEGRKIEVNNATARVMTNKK
Sequence,RBNS enrichment (R)
GGAAAGGGCAUGAAGUAAAGCGUUGCCUGAAUGCUGUGUGGUGUUUUGUUUCUUCCUCCUUCCUAUGAGGUUUUCUACUUCUCAAUUAAAAUAAUUUCAAAAUAAACACU,0.422
UAUUGCUUCAGUAGAGCCACAAUAUGUAUCUUUGCUGUAAAGUGCAAGGAAAUUUUAAAUUCUGGGACACUGAGUUAGAUGGUAAAUACUGACUUACGAAAGUUGAAUUG,0.32
AAAUGCUACAAUGACUUCCUAUUAAAGGUUCAAUAUUUACACAUUCUUAUUGGUUGAUAUUACCACAUGAAAUAUUGCCAGACCAAGAUACCUAAACUCAUGAUGUCUGU,0.479
CUAAGUACUUUAGUAGAAAACAACCUGUCAAUUUCUGAGGAAAAUAACAUUUUAGAAGCAAAGAACAAGCCUUUCUAAAUCUUCAGCUGUCAGCGUUUGGCAUUUAAUCU,0.546
AGAAUAUUUUUUUUUUGAGCAUGGCUAGUGGAUUUAAAACAACACAUACCUGUCACUGCUGGAGUCAAACUUAUAAAAAGCCUUAAGUGGAAAGUGUUCCAGACGGAGAC,0.484
GAUUGACAAGGAUAAGUCAGUUGUUUGUAAACUCUAGGUAGCAGAUGAGAAAUAAUUCACUUAAUAUCAGAAAUAUUUUCCAAACACUUUCCUUUAUUUUUUCUUCUGAA,0.356
GCAGAGGAGUGUCUGCAGGGAAACAGCUUCUCCUCUGCCCCGAUGGAUGCUUUAUUUGGAUGGCCUGGCAACAUCACAUUUUCUGCAUCACCCUGAGCCCCAUUUGCUUC,1.61
UACCACCAAUGAUGUGGGGAAGUGUGUUUCCCUAACAACUGGAGUUUUAGCCUAACCCUGAUCCCUUAACUGGUGCACCCCAGCCCCCGUGUUCGGGGCUCCCACCAUCU,0.227

# Sample 3
# Target: Sal-like protein 4, full length isoform B (SALL4, Homo sapiens, UniProt Q9UJQ4-2, residues 1-616)
# Technique: universal PBM
# Form: double-stranded DNA, one strand shown
# Matrix: in vitro
# Concentration: not given
# Notes: 8-mer, flanks averaged, mean of replicates
# Direction: higher = stronger binding
Sequence,E-score
AGATTGAT,0.0764
ATAGGAGC,0.0999
CAGCCTAA,-0.0533
CACAAGGC,-0.113
AGATGCAT,0.0526
TGCATTAA,0.242
CTTGTCAC,-0.0883
AGCTGCCC,-0.247
AAAGTTAT,0.314

# Mixed results
Substance,target,assay,test system,setting,how to read,quantity,result
"PhoQ, residues 284 288 289 292 302 303 SMMNNA","PhoP, residues 12 14 15 18 19 NHFRA (Escherichia coli, UniProt P23836)","Sort-seq, item: YFP reporter",E. coli,"PhoQ-PhoP variant library, added: 10 µM Mg2+","baseline: high Mg2+ state, higher = stronger signaling",fold induction,1.23

# For quick reference, copied from above (sample 1):
Substitution,relative binding score [%]
Q7G,83.4
S59K,67.5
